Assay results collected from several papers.
Parts stem from different laboratories: compare values within a part only. Positions count from the first letter of the parent shown.

Sample 1 — method: EMSA with sequencing; molecule type: double-stranded DNA, one strand shown; medium: in vitro; concentration: 10 and 20 nM; relative to: negative control set to 0; direction: higher = stronger binding
Target: Hepatocyte nuclear factor 3-alpha (Foxa1, Mus musculus, UniProt P35582, residues 1-468, full length assumed)
Notes: whole designed probe, mean of two concentrations, ends assumed
Target sequence (chain): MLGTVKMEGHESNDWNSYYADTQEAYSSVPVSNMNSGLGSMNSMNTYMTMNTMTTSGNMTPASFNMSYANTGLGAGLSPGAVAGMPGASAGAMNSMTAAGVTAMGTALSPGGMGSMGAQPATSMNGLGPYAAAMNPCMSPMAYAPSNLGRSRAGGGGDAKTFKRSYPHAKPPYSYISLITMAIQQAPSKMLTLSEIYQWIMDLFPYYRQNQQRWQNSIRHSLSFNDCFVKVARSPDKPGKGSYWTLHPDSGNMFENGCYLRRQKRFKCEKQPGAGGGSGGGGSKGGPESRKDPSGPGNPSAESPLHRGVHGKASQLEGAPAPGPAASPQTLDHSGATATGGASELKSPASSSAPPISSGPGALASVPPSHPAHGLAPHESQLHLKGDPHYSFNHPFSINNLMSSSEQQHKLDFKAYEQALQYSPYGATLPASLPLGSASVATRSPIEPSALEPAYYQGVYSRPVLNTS
Sequence | normalised bound fraction [ratio]
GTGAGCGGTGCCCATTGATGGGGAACTTGGCTTAGTTAAGCCAGGAGCTCCTAAAGTTAATGAAATGTGCCTAATTAAATGGTGGCAGTTGGACTTTGATATTTTGGTTGATGAATTATTTGTTTACTTTGATTTGCTATGGTTCACATAATTTCAAAGGTAGCATCGTGTCTGTCATGGAAAATTTCTAAAGAAGGATTTGCCAATAGAATTACAAATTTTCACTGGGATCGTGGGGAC | 0.468
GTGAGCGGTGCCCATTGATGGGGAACTCCACAGCTACCCTTGGTTCCTTCAATCCCTCTTCTCCTAAAACAAACAAAAGCATGTTCCTTTGTCATTAAAAAAAAAAAAAAAAAGCAAAGTAATCTTGCATCACACAGGCCAGCAGCCAGAAGTTTCCAATGCTCAGTGTCTGCTGCATTCTACGCCTCTATCACACAAAACTCACCACCCTCTAGTTCTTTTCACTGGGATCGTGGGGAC | 0.439
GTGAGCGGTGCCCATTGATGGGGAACATCTTCCCCCTCTTCCTTGCCCCACCAGCTCACCTTCCCGGGTCAAAGTAAACAAGTGTTTACTTTGAAGCCGGCATTCGTTAACCCTCTTCACGCGCATACTGCCAGAGCAAACAGATCTAACATGGTCCTTTGGCGACGCCAGGCTCCGGGAGAGCAAAGCACCGTGTCAGGGCCATGATCCGGGGTGGCCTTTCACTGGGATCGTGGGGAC | 0.47
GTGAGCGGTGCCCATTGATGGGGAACAGGACTAGAGATGGAAAAGTGGAGACCTCGGGAGAGAAAAGTAAAAATAGGTGAGAATGTTCCATCTGAATCCCTGATGGGGACTGTGGGGCTTGTTTACTTAAGGTTCTCCTTTGGGGAGGGCAGACAAGAACCAGTCCCAGCTGGGACTCTGGTGCAGAGGGATGGAAGGTGATCGTTTTGTGTGAGTCTCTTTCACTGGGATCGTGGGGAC | 0.467
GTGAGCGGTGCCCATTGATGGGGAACATCTTCCCCCTCTTCCTTGCCCCACCAGCTCACCTACGGGGGTTATTTGCAGATAGGAAAATAAATAAAGCCGGCATTCGTTAACGCAGTTCACGCGCATACTGCTGTTTGCTCTGGATCTAACATGGTCCTTTGGCGAGGCGTGGCTCCGGGAGAGCAAAGCACCGTGTCAGGGCCATGATCCGGGCTCGCCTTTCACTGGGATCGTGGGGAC | 0.341
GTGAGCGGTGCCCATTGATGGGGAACCCTGGCTGTGTGCTAATGGACAGGAGAAGAACTTGGATTTTGATAGCTTCTATATTACTTATAATTGTGTACAAATATTTACATTTATTGCCCTTGTTTACTTTTATGTTTATGAGCTTACTTGTTCAATGTCCCTCAACTGAAAGTGCATCTCAAAATGAGATTTATGAATTTGTACATTTGAGTTCTGTGTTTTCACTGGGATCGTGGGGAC | 0.494
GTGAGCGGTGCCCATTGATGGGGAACAATTACAAGTTCTATGACCTTATTGTAAGGTGTCTCAAACTTTTTTGAATTGGGTGTGTACATTTAGAGTAACCAAACTGAGTCAGTGCAAAGTCAACAGAGCTGGGCAGATAGCCGAGCCAGGAGAAATCTCAACTGGATGGTGCCAGAACTGGTAGGGGAAGCCTCTAGTACTGCTACCAAATATATTGTGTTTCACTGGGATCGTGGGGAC | 0.262
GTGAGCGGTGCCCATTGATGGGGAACAAGCGCTTGAATAAAACAAATGCAATTGTAAAAAATGCACATTCTTCAAGTGTTTGCACTTTCCCTAGGTTTCTTTTATAATGAATATTTTTCATGTTTACATTTGTGTGACTTCAGAAAGGTGAATATCCTACGAAATTAGTAAGGCAGGATTATATTTGCTTTGTCCACTCACTGTAAGCTCCTCTGACCCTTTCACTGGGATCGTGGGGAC | 0.43

Sample 2 — method: protein binding microarray; molecule type: double-stranded DNA, one strand shown; medium: in vitro; concentration: not given; relative to: not given; direction: higher = stronger binding
Target: Histone acetyltransferase KAT6A, both winged helices, GST fusion (KAT6A, Homo sapiens, UniProt Q92794, residues 1-181)
Notes: 8-mer, flanks averaged, mean of 2 arrays, mostly near background
Construct (chain): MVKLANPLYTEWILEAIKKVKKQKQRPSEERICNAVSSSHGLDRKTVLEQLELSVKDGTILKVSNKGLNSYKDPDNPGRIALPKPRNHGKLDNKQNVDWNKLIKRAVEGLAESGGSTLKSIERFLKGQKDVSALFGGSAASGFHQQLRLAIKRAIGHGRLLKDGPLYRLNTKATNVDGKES
Sequence | E-score
CGTGATGC | 0.119
GCCCTGTA | 0.00784
CACTAATC | -0.0814
TTAATGAA | -0.137
GCTTACGA | -0.00509
AGGACATA | -0.148
AATCGAGT | -0.13
CAAACTTC | -0.0893
ATATTAAG | -0.112
TCTTCGCA | -0.113
CTTGCCTA | -0.276
CCGGTCAA | 0.199
CACTAAGG | -0.0536
TAGAGTGA | -0.253
CGTCCCAG | -0.15
ATGGTTTA | -0.0354
AGCTACTC | -0.125

Sample 3 — method: RNA Bind-n-Seq; molecule type: RNA; medium: in vitro; concentration: 100 nM; relative to: input RNA pool; direction: higher = stronger binding
Target: RING finger protein unkempt homolog, zinc fingers 1-6, SBP tag (UNK, Homo sapiens, UniProt Q9C0B0, residues 30-357)
Chain of UniProt Q9C0B0 (30-357, looked up): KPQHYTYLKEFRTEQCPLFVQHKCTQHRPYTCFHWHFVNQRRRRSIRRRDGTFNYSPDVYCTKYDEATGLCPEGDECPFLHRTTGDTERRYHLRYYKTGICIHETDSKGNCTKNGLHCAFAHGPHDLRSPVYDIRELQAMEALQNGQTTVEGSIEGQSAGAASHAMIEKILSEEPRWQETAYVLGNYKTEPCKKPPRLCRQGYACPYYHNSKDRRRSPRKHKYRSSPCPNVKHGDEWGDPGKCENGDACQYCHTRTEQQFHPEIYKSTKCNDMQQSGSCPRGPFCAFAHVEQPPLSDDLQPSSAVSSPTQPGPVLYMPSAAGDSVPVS
Notes: RNA with constant flanks, vertebrate orthologous sites, ends assumed
Sequence | bound/input enrichment [ratio]
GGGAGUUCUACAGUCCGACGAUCGUGGUCCCUCCUGUGGCAGCAUCCUUGCAUACUGUCCUGGCCAGGACCAGGGACCUAUGUGUAGAACAUUUUUUAAAUCGCUGUGUCUGAGCAUCUCAGAGUAGGUGUGUCUCUUUGCAACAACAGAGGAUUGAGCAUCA | 0.416
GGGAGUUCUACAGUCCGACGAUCCUACCGCGUACCUGCUGUAUAAUAAACAACAAGACACUUGUCAGCUGUUGAUACAGGUGUUAGUCCCAAACCACUUUUUAUAUGUUUUAAAUUUUGAAAUUCAAGUGUAUCUGCCAUAACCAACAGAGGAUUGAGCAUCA | 1.29
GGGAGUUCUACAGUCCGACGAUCGAGCUAAAGGAGUUAGCAUCUUUAUUUUUGUAUUAAAGAUAAAGGUUAUUUUGGAAUUAUUAGGAUUUUUACACAACUCCAAAAUCUGUUGCUUUUGUAAACAAAGUGUUUGAUCUAGGUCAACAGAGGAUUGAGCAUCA | 0.643
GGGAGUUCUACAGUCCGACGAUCAAAUUUAUUUCAUGCCCUGGACUCCCUAUCGUACUGAUACUUUAAUAGAAUAUGCUUCUUUAGAAGAUUUCCAAAACAGUCGCCAAACAACAACAUAUAAACUUCCAAAUCGAGUAGAUGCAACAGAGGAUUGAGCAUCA | 1.09
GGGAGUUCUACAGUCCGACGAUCUAUCUUCAGGAUGAAGCUCUUACAUCAGGUGUCAAGAGUCUGGAGAACAGAUGGGUUGAACAGUUGUAUUUAUAAGUUAGUCUCUGUGGAUUACAAUCCUUUAUAUAUCAACAUCACAGUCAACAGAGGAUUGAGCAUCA | 0.322
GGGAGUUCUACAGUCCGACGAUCUCAUCUCUUUUUAUAUGUCCAAACAUGGCUUUGAACUUUUAAACAGUUGCUAGUUUUACUUAGCUCUACCCUCAUGAAGUAUCUUUGCUGUUGAUCACUGACAGACACCUGUCUGUUACUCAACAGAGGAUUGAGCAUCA | 0.459
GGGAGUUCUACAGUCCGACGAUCAUAUCUUGGUUUAGGGUAGAGGGGAGGGAGGGGCAGGACUGUGGAAUCUCUAAGGUGUAUCGGUAGACAAGUGGGCCUUUAUGUUAAAAACCUCUGGGGGCCUCUGUUUUGGGGGUGAAGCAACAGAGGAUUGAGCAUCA | 0.976
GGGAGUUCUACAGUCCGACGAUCCCAGUUUGUAUGUACAUUAUUCACAUUCCUCUCUGUUGUGUUUGGGGGAAGAGAGACAUUUUAGCCUUUUUUAAAGUUAUUGAUUUAAUUUCAUGUUAUUUGGUUGCAUGACGUUCCCGUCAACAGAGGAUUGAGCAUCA | 2.18
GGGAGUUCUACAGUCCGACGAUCCUGAAUAUUCUUAACAGUCCAAGAUGUUAUAAAAAUAUAUACCUGAAUUAUAAGAGCUGUUAGCAGUUUUUUUUUAAGCAUUUGUUUUGGGUACAAGGCAUAUCUGAAAUUUUAUAAACCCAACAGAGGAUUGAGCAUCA | 0.426
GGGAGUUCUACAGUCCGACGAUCAUCUCUCAUUUUCUAUGUCCAAAAAAGGUUUUGAAUUUUUAAAUAAUUGCUAGUUUUGAUUAGCUUUGCCCUCAUGAAGUAUUAUUAUAAUCCCCAUAAACAGAUAUCUGUCUGAAUUACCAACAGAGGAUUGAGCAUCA | 0.777
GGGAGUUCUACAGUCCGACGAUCUUGCUUUGUACAGGGCCUUCUCUGUGCUAACUUGUUGUGGUUAUAAAGCAAUUAGCAAAACAGCUUACAUUUGUAUUUAUUUUCUAUUCCAUACCUCUCUGCCCCAUGUGUUUUCUCUUCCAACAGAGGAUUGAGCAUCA | 0.78

Sample 4 — target: CCND1, cyclin fold, Cln2 fusion (human); method: yeast growth competition, sequencing; medium: yeast; notes: weak parent motif; relative to: not given; direction: higher = stronger binding
Starting sequence: RP1L1 docking peptide (human); TLGLGPLSFTLED; partner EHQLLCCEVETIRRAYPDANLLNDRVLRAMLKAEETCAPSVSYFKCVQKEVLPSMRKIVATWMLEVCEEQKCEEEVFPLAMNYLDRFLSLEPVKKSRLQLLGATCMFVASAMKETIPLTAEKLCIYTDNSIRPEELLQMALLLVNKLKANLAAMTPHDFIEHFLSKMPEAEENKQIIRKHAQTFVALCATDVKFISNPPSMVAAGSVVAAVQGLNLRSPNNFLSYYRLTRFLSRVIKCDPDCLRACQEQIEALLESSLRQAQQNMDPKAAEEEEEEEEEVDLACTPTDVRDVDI
Variant | normalised enrichment score
TLGLGPLAFTLED [S8A] | 0.726
TLALGPLSFTLED [G3A] | 0.917
TLGAGPLSFTLED [L4A] | 0.989
TLGLGPLSFTLAD [E12A] | 0.772
TLGLGPASFTLED [L7A] | 0.362
TLGLGPLSFTLEA [D13A] | 0.551
TAGLGPLSFTLED [L2A] | 0.401

For quick reference, copied from above (sample 2):
Sequence | E-score
GCCCTGTA | 0.00784
CACTAATC | -0.0814
TTAATGAA | -0.137
GCTTACGA | -0.00509
AGGACATA | -0.148
